Experimental data gathered from unrelated publications.
Each line is one published result; not all experiments were run side by side. Numbers after ± are the reported error.

For `CCN(CC)c1ccc2c(-c3ccccc3C(=O)OCCOCC[18F])c3ccc(=[N+](CC)CC)cc-3oc2c1`, the tissue uptake was 0.49 ± 0.04 %ID/g (rat, liver; 60 min).
The tissue uptake of `CN(C)c1ccc(C(=O)NCCCCN2CCN(c3ccccc3O[11CH3])CC2)cc1` is reported as 0.024 ± 0.009 %ID/g (male Sprague Dawley rat, fat; iv, 5 min; reference: untreated).
The tissue uptake of `CCN(CC)c1ccc2c(-c3ccccc3C(=O)OCCC[18F])c3ccc(=[N+](CC)CC)cc-3oc2c1` is reported as 1.58 ± 0.19 %ID/g (rat, lung; 60 min).
The tissue uptake of `CCNc1cc2[o+]c3cc(NCC)c(C)cc3c(-c3ccccc3C(=O)OCCOCC[18F])c2cc1C` is reported as 0.13 ± 0.03 %ID/g (rat, blood; 15 min).
The tissue uptake of `[11CH3]n1c(=O)n(CCCO)c(=O)c2c1nc(Oc1cccc(OC(F)(F)F)c1)n2Cc1ccc(Cl)cc1` is reported as less than 1 %ID/g (Sprague Dawley rat, tissues other than liver; 60 min).
The tissue uptake of `O=C(c1ccc(F)cc1)C1CCN(C2Cc3c(cccc3OCC[18F])CC2O)CC1` (single isomer, unassigned; (-)) is reported as 0.456 ± 0.122 %ID/g (Sprague-Dawley rat, male, liver; intravenous, dose not given, 60 min).
`COc1ccc(NC(=O)Cn2c(=O)c3ccccc3n(CC(=O)Nc3cc([125I])c(OC)cc3OC)c2=O)cc1` has a tissue uptake of 0.1 ± 0.01 %ID/g (Wistar rat (normal), thymus; intravenous, 0.08333 h).
`O=C(O)CCCN1CCN2CCN(CC1)CC(=O)[O][Al]([18F])[O]C(=O)C2` gave a tissue uptake of less than 1% (Sprague-Dawley rat renal pedicle ligation, spleen, heart and lung; dose not given, 60 min).
For `COc1cc2ccnc(Cc3ccc(O[11CH3])c(OC)c3)c2cc1OC`, the tissue uptake was 0.154 ± 0.013 %ID/g (Sprague-Dawley rat, brain; intravenous, 5 min).

A few entries again:
The tissue uptake of `CCN(CC)c1ccc2c(-c3ccccc3C(=O)OCCC[18F])c3ccc(=[N+](CC)CC)cc-3oc2c1` is reported as 1.58 ± 0.19 %ID/g (rat, lung; 60 min).
